Published values gathered from unrelated publications.
Lines come from different studies, so protocols differ. Several values in a cell are separate wells, animals, samples, runs or records. Numbers after ± are the reported error.

`C[C@H]1CN(C2COC2)CCN1c1ccc(Nc2cc(-c3ccnc(N4CCn5c(cc6c5CC(C)(C)C6)C4=O)c3CO)cn(C)c2=O)nc1` has a maximum inhibition of 81.1% (TMD8; calcium flux, FLIPR; 1 h preincubation, with: anti-IgM).
The EC50 of `CCOC(=O)C1=C(C)NC2=C(C(=O)OC(c3ccc(OC)c(OC)c3)C2)C1c1ccc2ccccc2c1` (stereo not drawn) is reported as > 20000 nM (J774.A1; cytotoxicity).
For `C#CCOc1cc(C(=O)Nc2cc(OCCN)c3ccccc3n2)nc(C(=O)Nc2cc(OCCN)c3ccccc3n2)c1`, the selectivity ratio was 0.9 (HT-1080; cell viability, CellTiter-Glo; 72 h; baseline: IC50 HT-1080 over WI-38).
Under cell migration, `O=C(NN=Cc1ccc(Cl)cc1)C1CC(=O)N(c2ccc(F)cc2F)C1` (stereo not drawn) is recorded as “inhibited” (PPC-1; wound healing; 10 µM, 12 h).
With `C#CCOc1cc(C(=O)Nc2cc(OCCCN)c3ccccc3n2)nc(C(=O)Nc2cc(OCCCN)c3ccccc3n2)c1` the selectivity ratio was 1.3 (HT-1080; cell viability, CellTiter-Glo; 72 h; baseline: IC50 HT-1080 over WI-38).
`C=CC(=O)N1CCC[C@@H](c2ccc(C(N)=O)c3[nH]ccc23)C1` has a maximum inhibition of 17.4% (TMD8; calcium flux, FLIPR; 2 h preincubation, with: anti-IgM).
For `C[C@@H](O)[C@H](NC(=O)Nc1ncnc2c1ncn2[C@@H]1O[C@H](CO)[C@@H](O)[C@H]1O)C(=O)O`, the AP-TGFα release was 0% (mock-transfected cells; TGFα shedding, agonist; 10 nM; baseline: unstimulated vehicle control).
`Cc1cnc(NC2CCOCC2)nc1-n1cnc(C(=O)NC(CN)c2cc(F)cc(Cl)c2)c1` (stereo not drawn): “G2 phase cells” 11.8% (MINO; flow cytometry; 1 µM, 24 h).
Under “log2 fold change”, `Cn1cc(-c2ccc(-c3cncc(Cl)c3N3CCC4(CCNC4=O)CC3)cc2)cn1` is recorded as 2.64 (COLO 205; gene expression, microarray, measured: EXD3 mRNA; concentration not given, 6 h; baseline: untreated cells).
`Cn1cc(Nc2nccc(-c3ccc4c(c3)CN(C3COC3)CC[C@H]4NC(=O)c3cn(C(C)(C)C)nn3)n2)cn1` — result for “number of upregulated genes”: 574 (human B cells; 100 nM, 64 h, non-stimulation-regulated genes, with: anti-IgM).
`Cc1nc(NC(=O)N2CCC[C@H]2C(N)=O)sc1-c1ccnc(C(C)(C)C(F)(F)F)c1` — result for “Hill coefficient GR curve”: 1.37 (BT-20; cell growth, CellTiter-Glo; 120 h).
`CNC(=O)c1cc(Oc2ccc(NC(=O)Nc3ccc(Cl)c(C(F)(F)F)c3)cc2)ccn1` has a selectivity ratio of 87.2 (MOLM-13; cell growth; 72 h; baseline: GI50 resistant FLT3-ITD-D835Y over parental).
The protein level of `CC/C(=N\NC(=O)NCc1cccc(O)c1)c1ccc(O)c(C)c1O` is reported as 0.98 ± 0.5 (SK-OV-3; Western blot, measured: LATS; 20 µM, 1 h, 2D culture, unit not given; baseline: β-actin).
For `CCn1cc(-c2cc(Cn3ccnc3)cc3c2CCN([C@H](c2cc(OC)ccn2)C2CC2)C3=O)c(C(F)(F)F)n1`, the EC50 was 1480 nM (SU-DHL-8; cell growth, inhibitor; 120 h).
The phospho-TBK1/TBK1 ratio of `CCc1ccc(NC(=O)Nc2c[nH]c3ccccc23)cc1` is reported as 0.972 and 1.32 and 0.936 (THP1-Dual; TBK1 phosphorylation, inhibitor, Western blot densitometry; 20 µM, with: poly(I:C)).
With `CCN(CC)C(=O)N1CCN(C)CC1` the viability was 53.3% and 54.4% (MDA-MB-231 BAX/BAK siRNA knockdown; CellTiter-Glo; concentration not given; baseline: normalised luminescence).
For `CC[C@H](C)[C@H](NC(=O)[C@H](CCC(N)=O)NC(=O)CNC(=O)[C@H](Cc1c[nH]cn1)NC(=O)[C@H](CCCCN)NC(=O)[C@H](Cc1c[nH]cn1)NC(=O)[C@H](Cc1c[nH]cn1)NC(=O)CN)C(=O)N[C@@H](CCSC)C(=O)N1CCC[C@H]1C(=O)N[C@@H](CCSC)C(=O)N[C@@H](CO)C(=O)NCC(=O)NCC(=O)NCC(=O)N[C@@H](CO)C(=O)N[C@@H](CCCCNC(=O)CCCC[C@@H]1SC[C@@H]2NC(=O)N[C@@H]21)C(=O)O`, binding read “no binding” (K562 (EphA2-negative); confocal microscopy; 10 µM, 20 min, 37 °C, biotin-labelled peptide).
`CCCCN1CCN(c2ccc3[nH]c(-c4ccc5[nH]c(-c6ccc(C(F)(F)F)cc6)nc5c4)nc3c2)CC1` gave a growth percent of -85.3% (MDA-MB-435; SRB; 10 µM, 48 h).
For `O=C(/C=C/C=C/C=C/C1CCCCC1)NC1=C[C@@](O)(/C=C/C=C/C=C/C(=O)NC2=C(O)CCC2=O)[C@@H]2O[C@@H]2C1=O`, the GI50 was 19200 nM (AGS; cell growth, CellTiter-Glo; 78 h).
`Cc1nn(-c2nc3c(F)cc(F)cc3s2)c(O)c1C(c1cccc(C(F)(F)F)c1)c1c(C)nn(-c2nc3c(F)cc(F)cc3s2)c1O` has an inhibition of 101% (THP1-Dual; IFN luciferase reporter; 40 µM, with: HT-DNA).
Under cell proliferation, `CCN1CCN(Cc2ccc(NC(=O)c3ccc(C)c(-c4ccc5nc(NC(=O)C6CC6)cn5n4)c3)cc2C(F)(F)F)CC1` is recorded as “inhibited” (MHHCALL4 B-ALL cells; CellTiter-Glo; concentration not given, 3 d).
With `CCOC(=O)C1=C(C)NC2=C(C(=O)OC(c3ccc(Cl)c(OC)c3)C2)C1c1ccc(Cl)cc1C` (stereo not drawn) the EC50 was > 20000 nM (J774.A1; cytotoxicity).
Under “log2 fold change”, `Cc1cc(Nc2ncc(Cl)c(Nc3ccccc3S(=O)(=O)C(C)C)n2)c(OC(C)C)cc1C1CCNCC1` is recorded as -4.9 (CLB-BAR; phosphoproteomics LC-MS/MS, measured: MAPK1 phosphorylation; 200 nM, 60 min; baseline: untreated).
The Emax of `Cc1cc(Nc2ncc(Cl)c(Nc3ccccc3S(=O)(=O)C(C)C)n2)c(OC(C)C)cc1C1CCNCC1` is reported as 100% (Ba/F3 EML4-ALK v1, no mutation; cell viability).
The viability of `O=P(O)(O)C(O)(Cn1ccnc1)P(=O)(O)O` is reported as 100 ± 1% (hFOB 1.19; AlamarBlue; 7.5 µM, 72 h; baseline: control).
`COc1cnc2cccc(N3CCc4c(cc(Cn5ccnc5C)cc4-c4cn(C)nc4C(F)(F)F)C3=O)c2c1` has an EC50 of 287 nM (SU-DHL-8; cell growth, inhibitor; 120 h).
With `C=CCn1c(=O)c2cnc(Nc3ccc(N4CCN(C)CC4)cc3)nc2n1-c1ccc2c(n1)[C@@](O)(CC)CC2` the γH2AX-positive cells was 11.2% (Kuramochi; flow cytometry; concentration not given, EdU-positive S phase).
`Cc1c(Cl)c(=O)oc2cc(OCCCCSC#N)ccc12` gave a GI50 of 19000 ± 9000 nM (WiDr, multidrug-resistant; sulforhodamine B).
With `CC(C)C[C@@H](C=O)NC(=O)[C@H](CC(C)C)NC(=O)[C@H](CC(C)C)NC(=O)OCc1ccccc1` the EC50 was 393 nM (BRD4-HiBiT cells; BRD4 degradation rescue, inhibitor; 4 h, with: dBET6 500 nM).
For `CC1CC(OC(=O)C(O)c2ccccc2)CC(C)(C)C1` (stereo not drawn), the Z score was -0.173 (MDA-MB-231 BAX/BAK siRNA knockdown; cell viability, CellTiter-Glo; direction not given).
For `Cc1nn(-c2nc3c(F)cc(F)cc3s2)c(O)c1C(c1ccccc1C(F)(F)F)c1c(C)nn(-c2nc3c(F)cc(F)cc3s2)c1O`, the inhibition was -9.17% and 6.46% and 7.75% and -11.5% and 1.78% and -9.21% (THP1-Dual; IFN luciferase reporter; 5 µM, with: HT-DNA).
`CC(C)=CCNc1ncnc2c1ncn2[C@@H]1O[C@H](CO)[C@@H](O)[C@H]1O` has an AP-TGFα release of -0.56% and 0.37% and 0.9% (mock-transfected cells; TGFα shedding, agonist; 100 nM; baseline: unstimulated vehicle control).
The EC50 of `CCCC1=C(C(=O)OCC)C(c2ccc(Cl)cc2C)C2=C(CC(c3ccc(OC)c(OC)c3)OC2=O)N1` (stereo not drawn) is reported as > 20000 nM (J774.A1; cytotoxicity).
The EC50 of `NS(=O)(=O)OC[C@@H]1C[C@@H](n2ccc3c(N[C@H]4CCc5ccccc54)ncnc32)C[C@@H]1O` is reported as 94 nM (BRD4-HiBiT cells; BRD4 degradation rescue, inhibitor; 2 h, 50% degradation rescued, with: dBET6 500 nM).
`CCCCc1oc2ccc(NS(C)(=O)=O)cc2c1C(=O)c1ccc(OCCCN(CCCC)CCCC)cc1` has a fold change of 2.2 fold (human embryonic stem cell aggregates; mRNA level, microarray, measured: TGFB1; 0.5 µM, 120 h; baseline: untreated, down-regulated).
The EC50 of `CCn1cc(-c2cc(Cn3ccoc3=N)cc3c2CCN([C@@H](C)c2cc(OC)ccn2)C3=O)c(C(F)(F)F)n1` is reported as 63.1 nM (HLC1; cell growth, inhibitor; 120 h).
`COc1cc(/C=C/C(=O)N2CCC=CC2=O)cc(OC)c1OC` gave a mRNA level of 886 ± 474% (MDA-MB-468; qRT-PCR, measured: NOS2; 30 µM, 6 h; baseline: time zero).
With `Nc1ncnc2[nH]cnc12` the Z score was 1.73 (MDA-MB-231 BAX/BAK siRNA knockdown; cell viability, CellTiter-Glo; direction not given).
With `Cc1cc(-c2ccccc2)n(-c2nc(-c3ccc(Cl)cc3)c3c(NC(=O)c4ccccc4)nnc-3[nH]2)n1` the cell growth was 97.3% (MDA-MB-435; SRB; 10 µM, NCI60 single-dose screen; baseline: untreated).
Under mRNA level, `N#C/C(=C\c1c[nH]nc1-c1ccc2ccccc2c1)C(=O)O` is recorded as “decreased” (LX-2; qPCR, measured: PAI1; 10 µM, hepatic stellate cell activation, with: TGFβ; baseline: untreated).
`CC(C)=CCC[C@@]1(C)C(CC[C@H]2[C@]3(C)CC[C@H](O)C(C)(C)O[C@H]3CC[C@@]2(C)O)=C(C)CC[C@H]1O`: intracellular [3H]-paclitaxel “no effect” (KB-3-1; 10 µM).
For `Cc1cccc(-c2[nH]c(CNc3ccccc3F)nc2-c2ccc3ncnn3c2)n1`, the viability was 17% (MM1.S pomalidomide-resistant; XTT; 3.5 µM; baseline: untreated).
`NS(=O)(=O)OC[C@H]1C[C@@H](Nc2ccnc3cc(-c4cccc(SC(F)(F)F)c4)nn23)[C@H](O)[C@@H]1O` gave an EC50 of 50.4 nM (BRD4-HiBiT cells; BRD4 degradation rescue, inhibitor; 24 h, with: dBET6 500 nM).
`O=c1[nH]nc(OCCCc2ccc(Cl)cc2)c(NCc2cccnc2)c1Br`: “normalized enrichment score” -1.72 (HEK-293T; RNA-seq GSEA, measured: HALLMARK_INTERFERON_GAMMA_RESPONSE; concentration not given; direction not given).
`C=CC1=C(C)c2cc3[n-]c(cc4nc(cc5[n-]c(cc1n2)c(C)c5C=C)C(C)=C4CCC(=O)O)c(CCC(=O)O)c3C.[Zn+2]` gave a fold change of 1.63 (SH-SY5Y; RNA-seq, measured: FAM83G mRNA; 5 µM, 5 h; baseline: untreated cells).
Under “Hill coefficient GR curve”, `C[C@H](Nc1ccc2c(c1)OCCn1cc(N3C(=O)OC[C@H]3C(F)F)nc1-2)C(N)=O` is recorded as 1.04 (KYSE-510; cell growth, CellTiter-Glo; 120 h).
`CC(C)NCC(O)c1ccc(O)c(O)c1` (stereo not drawn) gave a sarcomere length of 1.77 µm (mouse ventricular cardiomyocytes; dose not given, 0.083 s).
For `CCOC(=O)C1=C(C)NC2=C(C(=O)OC(c3ccc(OC)c(OC)c3)C2)C1c1ccc(OC)cc1` (stereo not drawn), the EC50 was > 20000 nM (J774.A1; cytotoxicity).
